Experimental data pooled from the literature.
A part holds a random share of what one study measured. Positions count from the first letter of the parent shown.

Series 1
Target: CCND1, cyclin fold, Cln2 fusion (human)
Technique: yeast growth competition, sequencing
Matrix: yeast
Notes: strong parent motif
Baseline: not given
Reading: higher = stronger binding
Parent: PKN2 docking peptide (human); VSAVRKLDFSDTM
Substitution	normalised enrichment score
R5E	0.809
T12V	5.14
D8E	4.09
V4R	5.21
S10L	3.8
K6C	4.72
S2C	4.78
D11T	4.96
S2E	1.56

Series 2
Target: Sal-like protein 4, full length isoform A (SALL4, Homo sapiens, UniProt Q9UJQ4, residues 1-1053)
Chain of UniProt Q9UJQ4 (whole entry, looked up): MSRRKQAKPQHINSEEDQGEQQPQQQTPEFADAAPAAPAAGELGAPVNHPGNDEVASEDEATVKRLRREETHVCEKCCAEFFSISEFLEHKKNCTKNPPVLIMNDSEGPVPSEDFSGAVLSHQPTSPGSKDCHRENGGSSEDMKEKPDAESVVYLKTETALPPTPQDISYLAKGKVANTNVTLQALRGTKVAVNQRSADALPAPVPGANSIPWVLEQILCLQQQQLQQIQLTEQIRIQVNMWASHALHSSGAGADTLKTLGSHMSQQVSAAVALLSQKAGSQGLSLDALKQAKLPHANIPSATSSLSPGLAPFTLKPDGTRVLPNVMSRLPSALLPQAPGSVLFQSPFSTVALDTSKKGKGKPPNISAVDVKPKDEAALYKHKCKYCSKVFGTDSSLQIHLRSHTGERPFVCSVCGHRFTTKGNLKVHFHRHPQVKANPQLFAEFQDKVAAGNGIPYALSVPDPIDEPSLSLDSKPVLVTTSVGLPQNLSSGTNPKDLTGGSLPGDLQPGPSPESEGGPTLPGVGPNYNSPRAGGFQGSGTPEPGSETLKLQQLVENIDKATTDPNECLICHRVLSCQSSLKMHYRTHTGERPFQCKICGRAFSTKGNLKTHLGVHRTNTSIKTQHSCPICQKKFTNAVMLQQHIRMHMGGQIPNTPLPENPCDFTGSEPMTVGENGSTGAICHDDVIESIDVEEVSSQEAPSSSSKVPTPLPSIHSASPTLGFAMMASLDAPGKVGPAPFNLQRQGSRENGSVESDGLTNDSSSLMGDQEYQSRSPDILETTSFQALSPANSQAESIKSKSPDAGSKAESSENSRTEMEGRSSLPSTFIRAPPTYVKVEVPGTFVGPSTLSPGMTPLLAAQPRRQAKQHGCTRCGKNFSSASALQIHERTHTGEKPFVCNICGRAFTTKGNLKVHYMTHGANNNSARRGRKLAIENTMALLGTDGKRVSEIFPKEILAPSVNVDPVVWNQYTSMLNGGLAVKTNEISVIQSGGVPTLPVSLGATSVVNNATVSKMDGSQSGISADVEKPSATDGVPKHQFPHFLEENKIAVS
Technique: universal PBM
Molecule type: double-stranded DNA, one strand shown
Matrix: in vitro
Tested at: 600 nM
Notes: 8-mer, flanks averaged, mean of replicates
Reading: higher = stronger binding
Strand	E-score
AGGTACTG	-0.0616
GCATACCA	-0.113
AACGGAAT	0.132
GAATCCCC	-0.297
CGGAAACG	-0.218
CCGTCGAC	-0.286
CACCCCGA	-0.121
TCGTGCCA	-0.165
ACTTCACA	0.107
CCCGACAG	-0.252

Series 3
Target: Histone acetyltransferase KAT6A, winged helix 1, GST fusion (KAT6A, Homo sapiens, UniProt Q92794, residues 1-85)
Technique: protein binding microarray
Molecule type: double-stranded DNA, one strand shown
Matrix: in vitro
Tested at: not given
Notes: 8-mer, flanks averaged, mean of 2 arrays, mostly near background
Baseline: not given
Reading: higher = stronger binding
Residues (chain): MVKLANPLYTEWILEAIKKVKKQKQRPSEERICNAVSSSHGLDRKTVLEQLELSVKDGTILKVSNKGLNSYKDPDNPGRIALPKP
Strand	E-score
GTAACAAC	-0.031
AGACGCCC	0.158
CACCCAGG	-0.207
AATCAGCC	0.0904
ACTAGGAC	-0.121
GCAGTAAA	-0.188
GACCACGC	0.0624
GGACAGCA	-0.173
CCTCGTCA	-0.124
AGCCGGCG	0.45
GTTGGCGA	0.106

Mixed results
Substance	target	test	test system	setting	how to read	quantity	value
PhoQ, residues 284 288 289 292 302 303 SQSLSM	PhoP, residues 12 14 15 18 19 NQFFI (Escherichia coli, UniProt P23836)	Sort-seq, measured: YFP reporter	E. coli	PhoQ-PhoP variant library, together with: 10 µM Mg2+	baseline: high Mg2+ state, higher = stronger signaling	fold induction	12.5

Some of these lines once more (series 3):
Strand	E-score
GTAACAAC	-0.031
AGACGCCC	0.158
CACCCAGG	-0.207
AATCAGCC	0.0904
ACTAGGAC	-0.121
